Experimental data pooled from the literature.
Every numbered part comes from another study and shows a few of its results, in no order.

Study 1 — technique: aptamer microarray, sandwich; molecule type: DNA with 2'F-ANA; matrix: in vitro; concentration: 200 nM; with: Cy3 exosite-II aptamer, 400 nM; reading: higher = stronger binding; endpoint: mean fluorescence intensity; sequence: GGTTGGTGTGGTTGG
Target: Prothrombin, mature alpha-thrombin (F2, Homo sapiens, UniProt P00734)
Notes: whole 15-mer aptamer, many near background
2'F-ANA at 1 3 4 9 10 11 13 14 15: 56.6 a.u.
2'F-ANA at 1 3 4 8 9 10 11 12 13 14 15: 55.2 a.u.
2'F-ANA at 1 4 5 6 7 8 9 10 12 13: 50.2 a.u.
2'F-ANA at 1 4 7 11 12 14 15: 58.5 a.u.
2'F-ANA at 2 7 9 11 13 15: 297 a.u.
2'F-ANA at 2 3 5 7 10 12: 70.3 a.u.

Study 2 — technique: protein-binding microarray; molecule type: double-stranded DNA, one strand shown; matrix: in vitro; concentration: 2540 nM top; notes: 60-bp whole probe; with: salmon DNA 0.4 mg/ml; baseline: random background probes; reading: higher = stronger binding; endpoint: fitted relative affinity; all sequences stand within: GCCTAGCAC … GTCTTGATTCGCTTGACGCTGCTG
Target: Interferon regulatory factor 3, full length, phosphomimetic (IRF3, Homo sapiens, UniProt Q14653, residues 1-427, S386D/S396D/S398D/S402D/T404D/S405D)
Construct (chain): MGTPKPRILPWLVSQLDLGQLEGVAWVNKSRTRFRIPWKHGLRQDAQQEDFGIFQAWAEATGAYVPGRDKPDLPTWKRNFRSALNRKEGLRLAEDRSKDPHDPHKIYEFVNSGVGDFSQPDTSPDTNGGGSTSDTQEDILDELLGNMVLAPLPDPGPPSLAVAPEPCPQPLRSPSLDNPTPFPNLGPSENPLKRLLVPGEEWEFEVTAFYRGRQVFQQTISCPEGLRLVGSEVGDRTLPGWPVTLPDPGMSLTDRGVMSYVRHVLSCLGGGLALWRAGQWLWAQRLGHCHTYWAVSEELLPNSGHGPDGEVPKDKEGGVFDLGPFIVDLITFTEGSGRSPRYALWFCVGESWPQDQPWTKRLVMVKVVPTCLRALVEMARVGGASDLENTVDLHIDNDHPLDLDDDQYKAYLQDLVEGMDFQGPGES
TCCAATTCTCTTTTCACTTTGTGCTAG: 2.79 z-score
GACGGACTGGACTATCGGAACGTGCTA: -0.018 z-score
GACCATCTCAGTCTCGAGACGTGCTAG: 1.61 z-score
GTCGATATCGGGTATCGAGACGTGCTA: 0.976 z-score
TCAAAAATCTTTGTTGGAACTGTGCTA: -0.267 z-score
TTAGATCTCAATATCGATTAGTGCTAG: 0.476 z-score
TTAGGTTCCCTATTCCTTTAGTGCTAG: 4.21 z-score
TTAGGACTGGACTTTCGGTAAGTGCTA: 0.334 z-score
TTTGGTATCGACTTTCGGTTAGTGCTA: 2.16 z-score
GACGATATCAGTCTCTAGACGTGCTAG: 1.21 z-score

Study 3 — target: Sox-I, HMG box (Salpingoeca helianthica); technique: Spec-seq; molecule type: double-stranded DNA, one strand shown; matrix: in vitro; concentration: not given; notes: whole probe, mean of replicates; baseline: not given; reading: lower = stronger binding; endpoint: relative binding energy; all sequences stand within: GAGTCGTCTCGTCAGCAC … CCGTAGAGCACTCAGGTC
Target sequence (chain): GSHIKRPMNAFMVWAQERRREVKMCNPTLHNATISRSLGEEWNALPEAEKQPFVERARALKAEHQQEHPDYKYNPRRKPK
CATTATC: -0.705 ln ratio
CATTTTC: 0.624 ln ratio
ACAGGTT: 0.058 ln ratio
TCCAGTT: -0.0899 ln ratio
CATGGTA: 0.755 ln ratio
ATTCGTT: 0.613 ln ratio
GTCGGTT: 0.868 ln ratio
GAATGTT: 0.124 ln ratio
CATCGCA: 0.646 ln ratio
CATGTAC: 0.668 ln ratio

Further values, each from its own experiment
PhoQ, residues 284 288 289 292 302 303 NLCILV
fold induction (PhoP, residues 12 14 15 18 19 TQAIL (Escherichia coli, UniProt P23836); Sort-seq, refers to: YFP reporter; E. coli; PhoQ-PhoP variant library, with: 10 µM Mg2+; baseline: high Mg2+ state, higher = stronger signaling): 33.2

Repeated from above (study 3):
GAATGTT: 0.124 ln ratio
CATCGCA: 0.646 ln ratio
